Measured values gathered from unrelated publications.
Parts stem from different laboratories: compare values within a part only. Substitutions count along the parent as printed.

Sample 1
Target: CCNE2, cyclin fold, Cln2 fusion (human)
Method: yeast growth competition, sequencing
Matrix: yeast
Notes: weak parent motif
Baseline: not given
Direction: higher = stronger binding
Endpoint: normalised enrichment score
Starting sequence: USP37 docking peptide (human); PSAKRSLGFLPQP
F9A: -0.277
P1A: 0.112
Q12A: 0.459
L10A: -0.147
P13A: 0.255
P11A: -0.0426

Sample 2
Target: Histone acetyltransferase KAT6A, both winged helices, GST fusion (KAT6A, Homo sapiens, UniProt Q92794, residues 1-181)
Method: protein binding microarray
Form: double-stranded DNA, one strand shown
Matrix: in vitro
Tested at: not given
Notes: 8-mer, flanks averaged, mean of 2 arrays, mostly near background
Baseline: not given
Direction: higher = stronger binding
Endpoint: E-score
Residues (chain): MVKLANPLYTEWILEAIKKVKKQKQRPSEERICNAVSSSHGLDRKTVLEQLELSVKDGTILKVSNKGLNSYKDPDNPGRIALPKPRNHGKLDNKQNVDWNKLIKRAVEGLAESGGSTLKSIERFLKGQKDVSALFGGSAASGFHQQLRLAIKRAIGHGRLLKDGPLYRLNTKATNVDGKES
AACTCCAC: -0.092
CGCCATAG: 0.105
GGCCACAC: -0.0385
CTGCAAAC: -0.144
CAAATCAG: -0.0721
ACAGATTG: -0.0998
ACAGTGAA: -0.0911
ACACCCGA: 0.105
CACTGTCC: 0.0519
AACGTCGC: 0.0896
GAACTCCA: -0.0579
CACTCCAG: -0.134
CCTAATCG: -0.126
GGCAACCC: 0.0778
AACAGACC: 0.0479
CGGGATTA: 0.202
AAGGCGCC: 0.234
AGACCGCG: 0.265
GATTGAAC: 0.00432
ATTAAATC: 0.0223
GCTGTAAC: -0.0425
AACACCCG: 0.206
CTGTCATC: -0.0843
ACGTGGCG: 0.147
ACATACTA: -0.0966

Sample 3
Target: Interferon regulatory factor 5, full length, phosphomimetic (IRF5, Homo sapiens, UniProt Q13568-2, residues 1-514, S451D/S453D/S456D/S462D)
Method: protein-binding microarray
Form: double-stranded DNA, one strand shown
Matrix: in vitro
Tested at: 940 nM top
Notes: 60-bp whole probe
Together with: salmon DNA 0.4 mg/ml
Baseline: random background probes
Direction: higher = stronger binding
Endpoint: fitted relative affinity
Constant ends, left off below: GCCTAGCAC … GTCTTGATTCGCTTGACGCTGCTG
AAATTTTGATGAACTTAAGCGTGCTAG: -0.448 z-score
TCAGATTTCAGTTTTCTACTGTGCTAG: 0.638 z-score
GACGAACTAAGTCTCGAGACGTGCTAG: 0.51 z-score
TCATCCTTCTGACATCAAACTGTGCTA: 0.705 z-score
TTAGGTTTCCACACTGGGTTAGTGCTA: 0.588 z-score
GACGACATCAGTCTCGAGACGTGCTAG: 0.741 z-score
TTAGGTCTCGGTATCCGTTAGTGCTAG: 4.98 z-score
AAGACTCTCTTGTCTGGATGTGTGCTA: 0.0993 z-score
TTAGACATCAGTATCGATTAGTGCTAG: 4.55 z-score
GACGGACTGCTTATCCTAACGTGCTAG: -0.194 z-score
TTAGATCTGAGTCTCGATTAGTGCTAG: 2.58 z-score
GCCGGTCTCCTTCTCCTGACGTGCTAG: 0.504 z-score
GACGGTATCCTACTGCTTACGTGCTAG: -0.0278 z-score
TTAGAACTGCGGTATCGATTAGTGCTA: 2.86 z-score
TTAGAACTGAGTTTCGGTTAGTGCTAG: 8.86 z-score
TTAGGTATCCTTTTCCTGTAGTGCTAG: 0.778 z-score
TTAGGTCTCGTTCTCCTTTAGTGCTAG: 2.57 z-score
TTAGGTATCAGGTATCGGTTAGTGCTA: 5.08 z-score
GAACATACTAGTTTCCATTTGTGCTAG: 0.93 z-score

Sample 4
Target: RNA binding protein fox-1 homolog 2, RRM domain, GST-SBP tag (RBFOX2, Homo sapiens, UniProt O43251-10, residues 100-194)
Method: RNA Bind-n-Seq
Form: RNA
Matrix: in vitro
Tested at: 365 nM
Notes: natural RNA segment, single round, ends assumed
Baseline: no-protein control
Direction: higher = stronger binding
Endpoint: RBNS enrichment (R)
Construct (chain): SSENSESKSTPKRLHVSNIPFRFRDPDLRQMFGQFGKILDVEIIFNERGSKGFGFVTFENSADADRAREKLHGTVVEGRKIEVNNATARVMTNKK
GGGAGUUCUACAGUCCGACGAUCUUGUUCUGUGUGCAUGGAUUCCACACCUCUGCCGUAGGUAGAUCCGUCAGCGGGCAUUAUUACCGUGUCUUGUAAAGGGUCGGUUUUGUUAUGCAACAUGCAGAAUGCUGUGGAAUUCUCGGGUGCCAA: 1.16
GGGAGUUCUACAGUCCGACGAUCCCCUAAACCACUUCCUUAAAAUGUUUGGAUUUGCAAAGCCAAUUUGGGGCCUGUGGAGCCUGGGGUUGGAUAGGGCCAUGGCUGGUCCCCCACCAUACCUCCCCUCCACAUGGAAUUCUCGGGUGCCAA: 0.477
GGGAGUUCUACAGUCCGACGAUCAUUUCUGGACCCAGGGAAGGGAACUCAGCCCCUUACAACUCUUGGGGCUCCUCCAGGCCAGGGCCCUACACAAGAACUGUCCCCCAGCUCUGCUAUCCCCAUGGCCAUGAUGGAAUUCUCGGGUGCCAA: 0.276
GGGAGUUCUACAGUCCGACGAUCACCUGUCCUGGGAUGGAGUGUCAGCAUCCACCCCUUGGUUGUCAUCGAGGCCGCCCUCCCAGUCCUGGGUGAAGAUAUUUGGGCCACCAGGGCUCCCUUGGCCCCUUCACUGGAAUUCUCGGGUGCCAA: 0.737
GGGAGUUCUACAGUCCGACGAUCCCAGAGAUAUGGACUUUAUUUUUGUUCCCAGGACUGAUGUAGCUUAGUGGCAAGUGUCUCCCUGGCAUGUACUUAGCUGUAGAUUUGAUCCUCAUUGCUGGGACUGGGGAUGGAAUUCUCGGGUGCCAA: 1.01
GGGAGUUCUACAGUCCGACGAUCCUGAUUGAAGUCUGUUUUGCUGUGUCUGGUUAUGUUGUCUGCACUUUUAUGAAAUCACUACAAUAGAUCUACGUUGGAAAUAACUAUCAAUUUGUAAAGAAAUUUUUAUUUGGAAUUCUCGGGUGCCAA: 1.26
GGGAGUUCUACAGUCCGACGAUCAGGGGACGGCUUUGGGGGUCCCACGAGACAUGGACUAGGAGUUUAAGCAGGACAGUGUGCGUGCACGAGCUCCGAGCCCAGCACAGACAUGCCUGGAACCCCCGCCGCCUUGGAAUUCUCGGGUGCCAA: 0.394
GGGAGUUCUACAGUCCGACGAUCCGCCGCUGUCUCCUCCUCUCCAUCCCGCCCAGCCAUGUGACACCGGCUCUUGUAGAGGGCAUCCCCAGAUGUCCAAACCCUUUCCUGUGUACUGUUGAAAGCAUUGUUCUUGGAAUUCUCGGGUGCCAA: 0.482

Repeated from above (sample 2):
ATTAAATC: 0.0223
GCTGTAAC: -0.0425
AACACCCG: 0.206
CTGTCATC: -0.0843
ACGTGGCG: 0.147
